Published values collected from several papers.
A part holds a random share of what one study measured. Changes are numbered by the printed parent chain.

Set 1 — target: CCNA1, cyclin fold, Cln2 fusion (human); technique: yeast growth competition, sequencing; medium: yeast; setting: weak parent motif; reference: not given; reading: higher = stronger binding; quantity: normalised enrichment score
Parent: PKN2 docking peptide (human); VSAVQKLDFSDTM
Substitution = VSAVQKLDFSDKM [T12K]; value = 0.0974
Substitution = VSAVQKLDFSDTD [M13D]; value = -0.00306
Substitution = VSAVQKLDFSDTE [M13E]; value = 0.178
Substitution = VSAVQKMDFSDTM [L7M]; value = 0.169
Substitution = VSAVQKFDFSDTM [L7F]; value = 0.539

Set 2 — technique: protein-binding microarray; form: double-stranded DNA, one strand shown; medium: in vitro; concentration: 250 nM; setting: 60-bp whole probe; with: salmon DNA 0.4 mg/ml; reference: random background probes; reading: higher = stronger binding; quantity: log fluorescence; all sequences stand within: GCCTAGCAC … GTCTTGATTCGCTTGACGCTGCTG
Target: Interferon regulatory factor 5, full length, phosphomimetic (IRF5, Homo sapiens, UniProt Q13568-2, residues 1-514, K96S/S451D/S453D/S456D/S462D)
Oligonucleotide = GACGAAGTGGGGTTTCGAGACGTGCTA; value = 1.14 z-score
Oligonucleotide = GACGGACTGGGAATGGGGACGTGCTAG; value = -0.588 z-score
Oligonucleotide = CTAGGTCTCGGTTTCGGTTAGTGCTAG; value = 8.64 z-score
Oligonucleotide = GACGGTATCGTTCTCGGGACGTGCTAG; value = 1.64 z-score
Oligonucleotide = GACGGACTGGACATTGGGGACGTGCTA; value = -0.465 z-score

Set 3 — technique: DHFR PCA, deep sequencing; medium: yeast; with: (+)-ABA 1.4 µM; reference: wild-type fitted maximum; reading: higher = stronger binding; quantity: relative binding score
Target: ABI1, truncated, D143A, DHFR fusion (Arabidopsis thaliana)
Setting: methotrexate growth selection, single substitutions
Parent: PYL1, truncated, DHFR fusion (Arabidopsis thaliana); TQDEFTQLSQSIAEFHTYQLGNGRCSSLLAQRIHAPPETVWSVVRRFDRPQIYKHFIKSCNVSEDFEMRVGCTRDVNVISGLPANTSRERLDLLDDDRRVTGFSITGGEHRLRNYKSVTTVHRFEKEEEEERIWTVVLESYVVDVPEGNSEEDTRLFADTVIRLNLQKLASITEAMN; partner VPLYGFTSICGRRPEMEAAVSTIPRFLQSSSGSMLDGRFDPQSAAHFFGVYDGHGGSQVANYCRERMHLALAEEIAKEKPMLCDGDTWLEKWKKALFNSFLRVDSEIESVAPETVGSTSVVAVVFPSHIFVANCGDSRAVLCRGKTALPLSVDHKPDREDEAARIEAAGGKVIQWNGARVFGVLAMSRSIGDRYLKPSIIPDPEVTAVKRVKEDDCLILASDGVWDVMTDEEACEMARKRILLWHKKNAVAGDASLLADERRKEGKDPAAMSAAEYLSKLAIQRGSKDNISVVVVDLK
Substitution = C60I; value = 10.1%
Substitution = I57R; value = -1.99%
Substitution = T86Q; value = 16.4%
Substitution = E125Q; value = 77.8%

Single results of other studies
Substance = PhoQ, residues 284 288 289 292 302 303 NLAAMI; target = PhoP, residues 12 14 15 18 19 HLGGL (Escherichia coli, UniProt P23836); test = Sort-seq, measured: YFP reporter; test system = E. coli; setting = PhoQ-PhoP variant library, with: 10 µM Mg2+; scale = reference: high Mg2+ state, higher = stronger signaling; quantity = fold induction; value = 13.6

Repeated from above (set 2):
Oligonucleotide = GACGGACTGGACATTGGGGACGTGCTA; value = -0.465 z-score
Oligonucleotide = GACGGTATCGTTCTCGGGACGTGCTAG; value = 1.64 z-score
